Results collected from several papers.
Lines come from different studies, so protocols differ.
Organism: Pseudomonas aeruginosa

COc1ccc2ccc3c(c2c1)C=[N+]1C2CCCCC2[N+]2=Cc4ccc(F)cc4[O][Au-]21[O]3.F[P-](F)(F)(F)(F)F (stereo not shown)
MIC (bacterial growth, broth microdilution; carbapenem-resistant clinical isolate; 24 h): 10 µM

C[C@H]1COc2c(N3CCN(C)CC3)c(F)cc3c(=O)c(C(=O)N[C@@H](CCCNC(=N)N)C(=O)N[C@@H](Cc4ccc(-c5ccccc5)cc4)C(=O)N[C@@H](CCCNC(=N)N)C(=O)N[C@@H](Cc4ccc(-c5ccccc5)cc4)C(=O)N[C@@H](CCCNC(=N)N)C(N)=O)cn1c23
MIC (broth microdilution; ATCC 3197): 20 µM

CCOC(=O)c1ccc2c(c1)n(CC)[c]([Au-][Cl])[n+]2CC
MIC (broth dilution; PA7 DSM 24068; 20 h, 37 °C): > 30 µM

COc1ccc2ccc3c(c2c1)C=[N+]1C2CCCCC2[N+]2=Cc4cccc(C)c4[O][Au-]21[O]3.F[P-](F)(F)(F)(F)F (stereo not shown)
MIC (bacterial growth, broth microdilution; carbapenem-resistant clinical isolate; 24 h): > 20 µM

CC(C)=CCc1cc([C@@H]2CC(=O)c3c(O)cc(O)c(CC=C(C)C)c3O2)cc(CC=C(C)C)c1O
MIC (ATCC 10145): 128 µg/mL

CC[C@@H](C)[C@@H](NC(=O)[C@@H](C)NC(=O)[C@@H](CCCCN)NC(=O)[C@@H](CC(C)C)NC(=O)[C@@H](C)NC(=O)[C@H](NC(=O)[C@@H](CCCCN)NC(=O)[C@@H](CC(C)C)NC(=O)[C@H](NC(=O)[C@@H](CCCCN)NC(=O)[C@@H](CCCCN)NC(=O)[C@@H](CCCCN)NC(=O)[C@@H](C)NC(=O)[C@@H](CCCCN)NC(=O)[C@@H](CO)NC(=O)[C@@H](Cc1ccccc1)NC(=O)[C@H](NC(=O)[C@@H](CCCCN)NC(=O)[C@@H](CC(C)C)NC(=O)[C@@H](Cc1ccccc1)NC(=O)[C@@H](CO)NC(=O)[C@@H](CCCCN)NC(=O)[C@@H](Cc1c[nH]c2ccccc12)NC(=O)[C@@H](CCCCN)NC(C)=O)[C@H](C)O)C(C)C)[C@H](C)O)C(=O)N[C@H](CO)C(=O)N[C@H](CCCCN)C(N)=O
MIC (broth microdilution; PAO1; 24 h, 37 °C): 1.3 µM

CC(C)CCCCC(=O)N[C@@H](CCN)C(=O)N[C@H](C(=O)N[C@@H](CCN)C(=O)N[C@H]1CCNC(=O)[C@H]([C@@H](C)O)NC(=O)[C@H](CCN)NC(=O)[C@H](CCN)NC(=O)[C@H](CC(C)C)NC(=O)[C@@H](Cc2ccccc2)NC(=O)[C@H](CCN)NC1=O)[C@@H](C)O
MIC (broth microdilution; PAO1; 37 °C): 0.25 µg/mL

CC[C@@H](C)[C@@H](NC(=O)[C@@H](C)NC(=O)[C@@H](CCCCN)NC(=O)[C@@H](CC(C)C)NC(=O)[C@@H](C)NC(=O)[C@H](NC(=O)[C@@H](Cc1c[nH]cn1)NC(=O)[C@@H](CC(C)C)NC(=O)[C@H](NC(=O)[C@H](NC(=O)[C@@H](CCCCN)NC(=O)[C@H](NC(=O)[C@@H](C)NC(=O)[C@@H](CO)NC(=O)[C@@H](CCCCN)NC(=O)[C@@H](Cc1ccccc1)NC(=O)[C@H](NC(=O)[C@@H](CCCCN)NC(=O)[C@@H](CC(C)C)NC(=O)[C@@H](Cc1ccccc1)NC(=O)[C@@H](CO)NC(=O)[C@@H](CCCCN)NC(=O)[C@@H](Cc1c[nH]c2ccccc12)NC(=O)[C@@H](CCCCN)NC(C)=O)[C@H](C)O)C(C)C)[C@H](C)O)C(C)C)[C@H](C)O)C(=O)N[C@H](CO)C(=O)N[C@H](CO)C(N)=O
MIC (broth microdilution; PA14; 24 h, 37 °C): 1.3 µM

N=C(N)NCCC[C@H](NC(=O)[C@H](CCCNC(=N)N)NC(=O)[C@H](CCCNC(=N)N)NC(=O)[C@@H](N)CCCNC(=N)N)C(=O)N[C@@H](Cc1c[nH]c2ccccc12)C(=O)N[C@@H](Cc1c[nH]c2ccccc12)C(=O)N[C@@H](Cc1c[nH]c2ccccc12)C(=O)N[C@@H](Cc1c[nH]c2ccccc12)C(=O)O
MIC (broth microdilution; PAO1; 37 °C): 21.7 µg/mL

CC1(C)S[C@@H]2[C@H](NC(=O)[C@H](NC(=O)C3=C(O)C(c4ccccc4F)NC3=O)c3ccccc3)C(=O)N2[C@H]1C(=O)O (stereo partly shown)
MIC (broth microdilution; PAO1, Mueller-Hinton broth; without clavulanic acid): 25 µg/mL
